{"data": "Published values collected from several papers", "note": "A part holds a random share of what one study measured."}
{"data": "Block 1", "target": "Interferon regulatory factor 5, full length, phosphomimetic (IRF5, Homo sapiens, UniProt Q13568-2, residues 1-514, S451D/S453D/S456D/S462D)", "method": "protein-binding microarray", "molecule type": "double-stranded DNA, one strand shown", "sample": "in vitro", "tested at": "940 nM top", "setting": "60-bp whole probe", "with": "salmon DNA 0.4 mg/ml", "relative to": "random background probes", "reading": "higher = stronger binding", "constant ends, left off below": "GCCTAGCAC … GTCTTGATTCGCTTGACGCTGCTG"}
{"Oligonucleotide": "CTAATATTCATTTTATTCAAGTGCTAG", "fitted relative affinity [z-score]": 0.411}
{"Oligonucleotide": "GACGGTCTCCTTATCCCGACGTGCTAG", "fitted relative affinity [z-score]": 0.809}
{"Oligonucleotide": "GACGGGCTGGGACTGGGGACGTGCTAG", "fitted relative affinity [z-score]": -0.297}
{"Oligonucleotide": "TTAGAACTGAGTCTCGAGTAGTGCTAG", "fitted relative affinity [z-score]": 0.659}
{"Oligonucleotide": "TCAACTTTCTTTTTTTCACTGTGCTAG", "fitted relative affinity [z-score]": 2.26}
{"Oligonucleotide": "TTAGAACTGGGGTATCGATTCGTGCTA", "fitted relative affinity [z-score]": 2.57}
{"Oligonucleotide": "GACGGTATCCTTATCCTGCCGTGCTAG", "fitted relative affinity [z-score]": 0.0673}
{"Oligonucleotide": "TTAGGACTAGGACTGGGTTAGTGCTAG", "fitted relative affinity [z-score]": -0.854}
{"Oligonucleotide": "TTAGGTACCGGTCTCGGTTAGTGCTAG", "fitted relative affinity [z-score]": 2.47}
{"Oligonucleotide": "GACGATAGCAGTTTCGAGACGTGCTAG", "fitted relative affinity [z-score]": 3.26}
{"Oligonucleotide": "GACGGTTTCGGATTGGGGACGTGCTAG", "fitted relative affinity [z-score]": 7.14}
{"Oligonucleotide": "TTAGATAACAGTCTCGATTAGTGCTAG", "fitted relative affinity [z-score]": 2.55}
{"Oligonucleotide": "TTAGGTTTCCTTTTCCGTTAGTGCTAG", "fitted relative affinity [z-score]": 2.55}
{"Oligonucleotide": "TTAGGTCTCCTTCTCCCTTAGTGCTAG", "fitted relative affinity [z-score]": 0.437}
{"Oligonucleotide": "TTTGCTTTCCTTCTTGAACTGTGCTAG", "fitted relative affinity [z-score]": 1.18}
{"Oligonucleotide": "GTCGGTATCCTACTGCTGACGTGCTAG", "fitted relative affinity [z-score]": 0.4}
{"Oligonucleotide": "GACGGTTTCCATATCCTGACGTGCTAG", "fitted relative affinity [z-score]": 1.72}
{"Oligonucleotide": "AAATTCTGATATAATTCAAAGTGCTAG", "fitted relative affinity [z-score]": 0.247}
{"Oligonucleotide": "TCAAAAATCAAGTCTGGGACTGTGCTA", "fitted relative affinity [z-score]": -0.488}
{"Oligonucleotide": "AAGGTTATCCATCTCAAGTAGTGCTAG", "fitted relative affinity [z-score]": 0.305}
{"data": "Block 2", "target": "Fragile X messenger ribonucleoprotein 1, C-terminal low-complexity region (Fmr1, Mus musculus, UniProt P35922)", "method": "RNA Bind-n-Seq", "molecule type": "RNA", "sample": "in vitro", "tested at": "200 nM", "setting": "whole 134-nt RNA, ends assumed", "with": "150 mM LiCl", "relative to": "input library", "reading": "higher = stronger binding", "all molecules": "7-deaza-guanosine replaces G", "constant ends, left off below": "GGGAGUUCUACAGUCCGACGAUC … UGGAAUUCUCGGGUGUCAAGG"}
{"Oligonucleotide": "UGGGAGGUGGAUUUUGUUUAUUUUUUUAGCCCAUUUCCAGGGGUGGGAAUUUUUUUUUAAUAUGUGUCAUGAAUAAAGUUGUUUUUGAAA", "log2 enrichment": -0.127}
{"Oligonucleotide": "UGUGCUACACAUCGUAUGUACCGAAUCGGGGAAAAAAAGGGGAAAAAAAGGGAAAAAAAGGGAAAGUAUUAUGUUACGCCGUUCGGAUCU", "log2 enrichment": 0.603}
{"Oligonucleotide": "AGUCCUGUGCUACACAUCGUAUGUACCGAAUCGGAAAAAGGUUUUUGGUUUUUUUGGAAAGUAUUAUGUUACGCCGUUCGGAUCUGCACU", "log2 enrichment": -3.09}
{"Oligonucleotide": "UCCUGUGCUACACAUCGUAUGUACCGAAUCAAACCCCCCCAAACCCCCCCAAACCCAAAAAAGUAUUAUGUUACGCCGUUCGGAUCUGCA", "log2 enrichment": 1.03}
{"Oligonucleotide": "GUCCUGUGCUACACAUCGUAUGUACCGAAUCGGGAAAAAGGGAAAGGGUUUUUUUGGGAAAGUAUUAUGUUACGCCGUUCGGAUCUGCAC", "log2 enrichment": -1.54}
{"Oligonucleotide": "UCAAGUCCUGUGCUACACAUCGUAUGUACCGAAUCGGGAAAAAGGGAGGGAGGGAAAGUAUUAUGUUACGCCGUUCGGAUCUGCACUUCC", "log2 enrichment": -1.25}
{"Oligonucleotide": "CCUGUGCUACACAUCGUAUGUACCGAAUCGGGGUUUUUUUGGUUUUUUUGGUUUUUUUGGGAAAGUAUUAUGUUACGCCGUUCGGAUCUG", "log2 enrichment": -0.439}
{"Oligonucleotide": "CCUGUGCUACACAUCGUAUGUACCGAAUCGGGUUUUUUGGGUUUUUUGGGGUUUUUUGGGAAAGUAUUAUGUUACGCCGUUCGGAUCUGC", "log2 enrichment": -0.882}
{"Oligonucleotide": "CCUGUGCUACACAUCGUAUGUACCGAAUCGGGUUUUUUUGGGAAAAAAAGGGAAAAAGGGAAAGUAUUAUGUUACGCCGUUCGGAUCUGC", "log2 enrichment": -2.46}
{"Oligonucleotide": "CCUCAAGUCCUGUGCUACACAUCGUAUGUACCGAAUCGGAGGUUUUUGGUGGAAAGUAUUAUGUUACGCCGUUCGGAUCUGCACUUCCAG", "log2 enrichment": -0.687}
{"Oligonucleotide": "GUCCUGUGCUACACAUCGUAUGUACCGAAUCGGGGCCCCCGGGGCCCCCGGCCCCCGGAAAGUAUUAUGUUACGCCGUUCGGAUCUGCAC", "log2 enrichment": -1.13}
{"data": "Block 3", "target": "Histone acetyltransferase KAT6A, winged helix 2, GST fusion (KAT6A, Homo sapiens, UniProt Q92794, residues 85-181)", "method": "protein binding microarray", "molecule type": "double-stranded DNA, one strand shown", "sample": "in vitro", "tested at": "not given", "setting": "8-mer, flanks averaged, mean of 2 arrays, mostly near background", "relative to": "not given", "reading": "higher = stronger binding", "Residues (chain)": "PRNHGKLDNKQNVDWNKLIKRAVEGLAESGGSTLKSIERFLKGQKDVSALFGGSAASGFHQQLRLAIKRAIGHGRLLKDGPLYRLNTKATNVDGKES"}
{"Oligonucleotide": "ACCAGACT", "E-score": -0.132}
{"Oligonucleotide": "CAATGGGA", "E-score": -0.0482}
{"Oligonucleotide": "ATAGTCTG", "E-score": 0.0498}
{"Oligonucleotide": "AAGGCTTG", "E-score": -0.16}
{"Oligonucleotide": "TAGACATA", "E-score": -0.0101}
{"Oligonucleotide": "ACGGCAAT", "E-score": -0.0432}
{"Oligonucleotide": "GGGTCGAA", "E-score": 0.133}
{"Oligonucleotide": "GTTAATTA", "E-score": 0.0202}
{"Oligonucleotide": "CAGTCGCC", "E-score": 0.00791}
{"Oligonucleotide": "ATTCGTCA", "E-score": 0.00543}
{"Oligonucleotide": "CTGTCCCC", "E-score": -0.0207}
{"Oligonucleotide": "CTATGCTC", "E-score": -0.0559}
{"Oligonucleotide": "CACATCCA", "E-score": 0.0558}
{"Oligonucleotide": "ACATCAAG", "E-score": -0.0865}
{"Oligonucleotide": "GACTGGGC", "E-score": "7e-05"}
{"Oligonucleotide": "CTTCCGGA", "E-score": 0.182}
{"Oligonucleotide": "CGCAGCTC", "E-score": 0.048}
{"Oligonucleotide": "ACCATCGA", "E-score": -0.0673}
{"Oligonucleotide": "AATGGATA", "E-score": -0.142}
{"Oligonucleotide": "CCCGGACA", "E-score": 0.0197}
{"data": "Block 4", "target": "RNA binding protein fox-1 homolog 2, RRM domain, GST-SBP tag (RBFOX2, Homo sapiens, UniProt O43251-10, residues 100-194)", "method": "RNA Bind-n-Seq", "molecule type": "RNA", "sample": "in vitro", "tested at": "365 nM", "setting": "natural RNA segment, single round, ends assumed", "relative to": "no-protein control", "reading": "higher = stronger binding", "constant ends, left off below": "GGGAGUUCUACAGUCCGACGAUC … UGGAAUUCUCGGGUGCCAA", "Residues (chain)": "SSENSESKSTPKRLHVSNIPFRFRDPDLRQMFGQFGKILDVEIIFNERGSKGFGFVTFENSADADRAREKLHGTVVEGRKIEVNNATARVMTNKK"}
{"Oligonucleotide": "GCAAGCUGUAGCCAGAGGUACCAGCUUCGCCUGGGGCUUCAAGAACCUCCCAUCUAUCCCCAUUCCUGAGACAGGAGUUACAGUCCCUUUUGGCCCUCACAUCCAAUAAA", "RBNS enrichment (R)": 0.415}
{"Oligonucleotide": "UCAUUCCUAAGUUCCUUUUUCGUUAAUGUAGCUUUCAUUUCUGUUAUUGCUGUUUGAAUAAUAUGAUUAAAUAGAAGGUUUGUGCCAGUAGACAUUAUGUUACUAAAUCA", "RBNS enrichment (R)": 1.11}
{"Oligonucleotide": "CCUUGCCUGCAGUGGGAGAGUUGCCCAGUGGUUCCCCAUCCCCCAUUAUAUUCUAAUGCUAAAUCACUUGGCAAGAGUGUAUUUUAAUGAUGCCUAAUUUCUCUAUGUUC", "RBNS enrichment (R)": 1.14}
{"Oligonucleotide": "AGCCGAAAAUUAAACCCCACCUCCAUCAAACACAGUUUUUAUAGAUUCUGACUUUUUUAAAAAUUCUUUUCUAAUUAUUGUAAAAAGUAUAUUAUAUCUUAAGUCAGUUU", "RBNS enrichment (R)": 0.92}
{"Oligonucleotide": "UUGUGAUCCAAUAACACUUUGUAUUAAAUUGUUUAGCAGCCAUUUGUGUUGUGAAGGGGUAGAAGAUCUCUGAAACUUGUCUUGAGAUUGAACUCAUUCCCUGUUCCACA", "RBNS enrichment (R)": 0.35}
{"Oligonucleotide": "UAAAGAGACUGGCCAACAGGACCAACCAAGCACCUUACCUCUCCCAUACAAGAUGACCCUCUGAGCUUUUCAUUUAUUCAAGCUCUGUGGUACAGCCUUUUUUUAAAAUA", "RBNS enrichment (R)": 0.411}
{"Oligonucleotide": "UGGGUGGCCAUUGGUAAAUGUUAGGAACACACCAGGUCACCUGACAUCCCAAGAAUGCUCACAAACCUGCAGGCAUAUCAUUGGCGUAUGGCACUCAUUAAAAAGGAUCA", "RBNS enrichment (R)": 0.549}
{"Oligonucleotide": "GUGGCAGAUGUUUGAGGAAAGGAAUUAUGCCAGGAAGGUGGGACCGGGUUAUGGUCGGGUUUCUAUUGGGAAUGCUCUUUGUGCUUUUGGGCAUCUGAAUGGAAGCUUUA", "RBNS enrichment (R)": 2.75}
{"Oligonucleotide": "UAGAUUAAGGUUGAACCUUAGACACAAUGUGUGUUGUUAGUUGUAGAGCAGCCAUAUGUGCCAUGGGUGCUUUGUGUUAGUUAUCUGCUCUAGUCUUACAGCUGAAAAUU", "RBNS enrichment (R)": 0.431}
{"Oligonucleotide": "GACUGUCAUCUUAUUUUUAAAAGUCAUUCUUUACGUUUAAAAUUUUAAAAUAAAAACCUUCUGAGGUAUUGAUGUAGUCCACCGUGUAAAUGUUACCUUCUCUCCAUGCU", "RBNS enrichment (R)": 0.2}
{"Oligonucleotide": "AGUACUAGAAGCCAGAGCACUCUUCCUCCUGGCUCCUCCCCAGUGCUCUAGUGCUGUAGGAACCAAGAGCCAGCCCCAGGUUCCCCGAGGCAGUAAAAAUCCAGCACAGG", "RBNS enrichment (R)": 0.441}
{"Oligonucleotide": "GUUUUUUUAAUUGUGGUUGUUCUGACGUGUGAAAUUUAAGGAAAGAGCCAUUUUUUAAAAAUGCCGAGCAGGGCAAUGCAAGUACAGCCAAAUAUUAGACUUGAUGUGCA", "RBNS enrichment (R)": 0.818}
{"note": "Excerpt of the above (block 1):"}
{"Oligonucleotide": "CTAATATTCATTTTATTCAAGTGCTAG", "fitted relative affinity [z-score]": 0.411}
{"Oligonucleotide": "TCAACTTTCTTTTTTTCACTGTGCTAG", "fitted relative affinity [z-score]": 2.26}
{"Oligonucleotide": "TTAGATAACAGTCTCGATTAGTGCTAG", "fitted relative affinity [z-score]": 2.55}
{"Oligonucleotide": "TCAAAAATCAAGTCTGGGACTGTGCTA", "fitted relative affinity [z-score]": -0.488}
{"Oligonucleotide": "AAATTCTGATATAATTCAAAGTGCTAG", "fitted relative affinity [z-score]": 0.247}
{"Oligonucleotide": "GTCGGTATCCTACTGCTGACGTGCTAG", "fitted relative affinity [z-score]": 0.4}
{"Oligonucleotide": "GACGATAGCAGTTTCGAGACGTGCTAG", "fitted relative affinity [z-score]": 3.26}
